{"data": "Published values collected from several papers", "note": "Every numbered part comes from another study and shows a few of its results, in no order."}
{"data": "Sample 1", "target": "Sal-like protein 4, full length isoform A (SALL4, Homo sapiens, UniProt Q9UJQ4, residues 1-1053)", "technique": "universal PBM", "form": "double-stranded DNA, one strand shown", "matrix": "in vitro", "concentration": "600 nM", "notes": "8-mer, flanks averaged, mean of replicates", "direction": "higher = stronger binding", "UniProt Q9UJQ4, sequence (whole entry, looked up)": "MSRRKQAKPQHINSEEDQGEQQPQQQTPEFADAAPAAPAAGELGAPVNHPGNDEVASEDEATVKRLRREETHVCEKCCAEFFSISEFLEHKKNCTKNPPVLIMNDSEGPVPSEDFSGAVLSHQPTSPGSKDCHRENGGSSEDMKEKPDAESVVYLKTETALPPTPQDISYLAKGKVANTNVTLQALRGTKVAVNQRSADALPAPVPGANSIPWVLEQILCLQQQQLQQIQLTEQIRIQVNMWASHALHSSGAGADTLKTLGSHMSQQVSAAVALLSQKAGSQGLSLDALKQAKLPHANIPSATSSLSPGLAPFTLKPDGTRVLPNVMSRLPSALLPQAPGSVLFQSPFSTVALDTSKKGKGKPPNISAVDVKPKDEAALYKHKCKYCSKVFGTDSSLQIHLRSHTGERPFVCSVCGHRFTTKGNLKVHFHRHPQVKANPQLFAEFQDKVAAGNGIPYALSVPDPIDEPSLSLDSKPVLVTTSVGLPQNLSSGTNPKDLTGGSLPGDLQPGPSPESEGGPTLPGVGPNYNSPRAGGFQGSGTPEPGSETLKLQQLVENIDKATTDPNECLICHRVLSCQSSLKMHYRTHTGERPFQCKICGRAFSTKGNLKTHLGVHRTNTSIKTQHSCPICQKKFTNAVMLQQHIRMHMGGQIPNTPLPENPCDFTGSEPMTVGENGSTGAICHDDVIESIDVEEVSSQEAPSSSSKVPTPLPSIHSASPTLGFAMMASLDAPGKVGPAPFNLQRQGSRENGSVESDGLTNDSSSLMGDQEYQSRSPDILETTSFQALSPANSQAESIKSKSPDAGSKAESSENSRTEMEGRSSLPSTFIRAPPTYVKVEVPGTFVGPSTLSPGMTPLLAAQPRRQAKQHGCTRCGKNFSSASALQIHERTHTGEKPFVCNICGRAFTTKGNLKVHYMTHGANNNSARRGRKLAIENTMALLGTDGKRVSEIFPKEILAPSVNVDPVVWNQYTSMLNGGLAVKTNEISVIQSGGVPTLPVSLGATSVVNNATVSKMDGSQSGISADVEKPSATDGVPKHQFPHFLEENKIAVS"}
{"Sequence": "GCCTATCC", "E-score": -0.181}
{"Sequence": "CAGGTCTA", "E-score": 0.0205}
{"Sequence": "AGGCACGG", "E-score": -0.166}
{"Sequence": "GCCGCCAC", "E-score": -0.356}
{"Sequence": "ATACCGGA", "E-score": 0.026}
{"Sequence": "CAAAAGAC", "E-score": 0.152}
{"Sequence": "ACGCCCTG", "E-score": -0.221}
{"Sequence": "TAGAACAA", "E-score": 0.177}
{"Sequence": "GGATGCAC", "E-score": -0.162}
{"Sequence": "CCACCACC", "E-score": -0.249}
{"Sequence": "GACAATGA", "E-score": -0.0192}
{"Sequence": "ACTCCAGT", "E-score": 0.0329}
{"Sequence": "ATTCGGTC", "E-score": -0.0927}
{"Sequence": "ATCTGTAG", "E-score": 0.0425}
{"Sequence": "GTTAACAA", "E-score": 0.183}
{"Sequence": "CATTAGAG", "E-score": 0.0279}
{"Sequence": "AGAAATAA", "E-score": 0.328}
{"Sequence": "TCTAGTAA", "E-score": 0.268}
{"data": "Sample 2", "target": "Prothrombin, mature alpha-thrombin (F2, Homo sapiens, UniProt P00734)", "technique": "aptamer microarray, sandwich", "form": "DNA with 2'F-ANA", "matrix": "in vitro", "concentration": "200 nM", "notes": "whole 15-mer aptamer, many near background", "together with": "Cy3 exosite-II aptamer, 400 nM", "direction": "higher = stronger binding", "sequence": "GGTTGGTGTGGTTGG"}
{"Modification": "2'F-ANA at 1 3 4 5 7 8 10 12 13 14 15", "mean fluorescence intensity [a.u.]": 199}
{"Modification": "2'F-ANA at 1 3 5 6 9 10 12 15", "mean fluorescence intensity [a.u.]": 54.9}
{"Modification": "2'F-ANA at 7 8 9 10 11 12 13 14 15", "mean fluorescence intensity [a.u.]": 112}
{"Modification": "2'F-ANA at 1 2 6 7 8 9 11 12 15", "mean fluorescence intensity [a.u.]": 261}
{"Modification": "2'F-ANA at 1 4 5 7 9 11 12 14", "mean fluorescence intensity [a.u.]": 47.8}
{"Modification": "2'F-ANA at 1 2 4 8 9 10 12", "mean fluorescence intensity [a.u.]": 127}
{"Modification": "2'F-ANA at 1 4 6 7 10 12", "mean fluorescence intensity [a.u.]": 67.9}
{"Modification": "2'F-ANA at 2 3 4 5 6 8 9 11", "mean fluorescence intensity [a.u.]": 77.4}
{"Modification": "2'F-ANA at 1 2 8 14", "mean fluorescence intensity [a.u.]": 65.3}
{"Modification": "2'F-ANA at 3 5 6 7 9 12 14 15", "mean fluorescence intensity [a.u.]": 56.9}
{"Modification": "2'F-ANA at 1 6 7 13 14 15", "mean fluorescence intensity [a.u.]": 67.8}
{"Modification": "2'F-ANA at 2 3 4 5 6 9", "mean fluorescence intensity [a.u.]": 89.7}
{"Modification": "2'F-ANA at 1 3 5 6 8 9 10", "mean fluorescence intensity [a.u.]": 53.4}
{"Modification": "2'F-ANA at 2 5 7 9 10 11 12 13 14", "mean fluorescence intensity [a.u.]": 45.8}
{"Modification": "2'F-ANA at 1 3 5 6 9 12 13", "mean fluorescence intensity [a.u.]": 110}
{"Modification": "2'F-ANA at 3 4 5 6 7 11 13", "mean fluorescence intensity [a.u.]": 63}
{"Modification": "2'F-ANA at 1 2 4 6 7 8 11 12 13 14", "mean fluorescence intensity [a.u.]": 81.1}
{"Modification": "2'F-ANA at 2 3 4 8 9 10 11 14", "mean fluorescence intensity [a.u.]": 188}
{"Modification": "2'F-ANA at 6 8 10 11 14 15", "mean fluorescence intensity [a.u.]": 89.2}
{"Modification": "2'F-ANA at 2 3 4 5 6 7 8 9 12 13", "mean fluorescence intensity [a.u.]": 118}
{"data": "Sample 3", "target": "RING finger protein unkempt homolog, zinc fingers 1-6, GST-SBP tag (UNK, Homo sapiens, UniProt Q9C0B0, residues 30-357)", "technique": "RNA Bind-n-Seq", "form": "RNA", "matrix": "in vitro", "concentration": "not given", "notes": "RNA with constant flanks, ends assumed", "relative to": "input RNA pool", "direction": "higher = stronger binding", "all sequences stand within": "GGGAGUUCUACAGUCCGACGAUC … CAACAGAGGAUUGAGCAUCA", "UniProt Q9C0B0, sequence (30-357, looked up)": "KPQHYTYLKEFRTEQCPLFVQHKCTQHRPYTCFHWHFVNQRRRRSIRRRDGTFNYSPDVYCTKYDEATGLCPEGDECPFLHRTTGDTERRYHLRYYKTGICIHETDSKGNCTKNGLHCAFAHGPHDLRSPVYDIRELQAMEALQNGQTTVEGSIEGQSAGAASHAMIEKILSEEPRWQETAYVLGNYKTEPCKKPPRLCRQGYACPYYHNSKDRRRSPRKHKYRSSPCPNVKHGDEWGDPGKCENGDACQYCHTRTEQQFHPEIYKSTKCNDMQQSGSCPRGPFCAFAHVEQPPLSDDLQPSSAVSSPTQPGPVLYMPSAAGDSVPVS"}
{"Sequence": "CCUCUGGCCACUUAUGCCCCUGUCAUCUCUGCUGAGAAAGCCUACCAUGAGCAGCUUACAGCCGCAGAGAUCACCAAUGCCUGCUUUGAGCCAGCCAACCAGAUGGUGAAAUGUGACCCU", "bound/input enrichment": "0.115 ratio"}
{"Sequence": "AUGUCACAGUGUUAGCACCCUGCAUGGAUGUGGUCAAAAUAUCAUUCAAGUUGUACUUCCCCGUUUUUAUCAUCAUACUACUAUGUCAUAUGAUUUUCAGACUAAUUUAACAUGAGAAAU", "bound/input enrichment": "0.303 ratio"}
{"Sequence": "AAUAUCAGUGUUGGACGUUAAUGCCCACUUUUCUUAUUCUUACUCAGCCCCUUUUCCUCCCUCCGGAGCAUUGGUCCUCUGUUGUCCAUUUUUAUCACCAGAUGUUUUCCACUGAAGCAU", "bound/input enrichment": "1.5 ratio"}
{"Sequence": "CUUAAUUUUCUUUCUUGUUCGGUACCUACAUUGGAACCAUCAAAAACAAUUAUUUCAGUAAACCGCCGCCAUGAGGGAAAUCGUGCACAUCCAGGCCGGACAGUGUGGCAACCAGAUCGG", "bound/input enrichment": "0.2 ratio"}
{"Sequence": "GAUGGGAAAUGUGGACUUUACAAGUAUAUGUUAUAUAUACUUGCAAUGUGACAUGGUUCUGCCGAUCAUUUUAUAAUAAUAAAUAUUUUAAUUUAUCAUAACAUAUAAAAGAAACCUUUG", "bound/input enrichment": "4.73 ratio"}
{"Sequence": "UUUUUAUGUAGGCGAGCUAACACAGUGUACCUAAUUGCAGAAUUAUCUGAUUAAUUUGUAACCGAUAAGUUGUAUAACAUUUUCAUAUCUUAAAAUGUUUUUUAGAUCAAUCUUGAAGUG", "bound/input enrichment": "0.326 ratio"}
{"Sequence": "AGCAGCGGAGAGUUUCUGGGGCGCACCUCCAAGAGCUGGGGUCUGAUCUUGCUCUUCUACCCCGUUUUUUAUGGGUUCUUGGCUGCACUCUUCACAUUCACAAUGUGGGCCAUGCUCCAG", "bound/input enrichment": "0.142 ratio"}
{"Sequence": "GAAAGAGAAGCUAAAACAACUGAUUGAGAAGAGGAUUGGCAAAGAGAAUUUCAUAGAGAAACCCGGAUUUAUUAGCAAACAUGAGUUGUAUUCCAGAGCAUCUCAGAAACCCCAGCCAAA", "bound/input enrichment": "2.16 ratio"}
{"Sequence": "GAUAAGUUUGAAAAACUUGUGCAGACUGUGAGAGAUUAUCAUGCAACUUGGAAAACUGUCCGUAAUAAAUUAAAAAAUCAUCCUGAUUAUGAAGAAUACAUCAACUUAGAGGGAACAAGA", "bound/input enrichment": "1.1 ratio"}
{"Sequence": "GAUGAUGUAGCAGAAGCAGAUAUAAUUUCUACAGUAGAAUUUAAUCAUUCUGGAGAAUUACCCGCAACAGGAGAUAAAGGUGGUAGAGUUGUCAUCUUUCAACAGGAGCAGGAGAACAAA", "bound/input enrichment": "0.436 ratio"}
{"Sequence": "GUUGGCUUGUCAGAUGAACUGGCUAAACUGGAUGCAUUUGUAGAAGGAGUGGUUAAGAAAGCCGCUCAAUACAUGGCUGAUGUAUUGGAAGAUAGCAAAGACAAAGUUCAAGAGAAUCUG", "bound/input enrichment": "0.269 ratio"}
{"data": "Further values, each from its own experiment"}
{"Sequence": "LLRRLQDVANDRG", "organism": "Saccharomyces cerevisiae", "assay": "binding, competitive growth deep sequencing", "test system": "peptide, cyclin D3-Cln2 fusion strain", "setting": "concentration not given, peptide library 2", "scale": "direction not given", "measurement": "growth enrichment score", "value": 8.17}
{"note": "Some of these lines once more (sample 1):"}
{"Sequence": "ATCTGTAG", "E-score": 0.0425}
{"Sequence": "ATTCGGTC", "E-score": -0.0927}
{"Sequence": "TCTAGTAA", "E-score": 0.268}
{"Sequence": "ATACCGGA", "E-score": 0.026}
{"Sequence": "TAGAACAA", "E-score": 0.177}
